Published values gathered from unrelated publications.
A part holds a random share of what one study measured.

Block 1
Target: Phosphate system positive regulatory protein PHO4, full length, GST-tagged (PHO4, Saccharomyces cerevisiae, UniProt P07270, residues 1-312)
Technique: competition protein-binding microarray
Form: double-stranded DNA, one strand shown
Matrix: in vitro
Concentration: 2 µM
Notes: whole 60-bp probe, lowest competitor level
Added: Cbf1 competitor, 0.05 µM
Reading: higher = stronger binding
Constant ends, left off below: … GTCTTGATTCGCTTGACGCTGCTG
Target sequence (chain): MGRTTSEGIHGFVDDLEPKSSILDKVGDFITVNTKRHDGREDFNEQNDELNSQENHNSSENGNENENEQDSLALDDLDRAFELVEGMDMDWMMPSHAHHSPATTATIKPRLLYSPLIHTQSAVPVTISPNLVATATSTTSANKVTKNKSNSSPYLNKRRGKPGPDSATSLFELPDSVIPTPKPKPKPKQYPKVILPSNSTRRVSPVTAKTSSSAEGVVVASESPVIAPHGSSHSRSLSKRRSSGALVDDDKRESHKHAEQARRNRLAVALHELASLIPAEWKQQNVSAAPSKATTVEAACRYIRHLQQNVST
Sequence	fluorescence intensity [a.u.]
TCGGAGGCCACTCACCACGGGAGGAGGCCAAGGCTG	4990
CCTAAGATGGGTCGGCACGTGTAATGAACTGAACGC	17700
GTCTTGTCTCATTGACGTGTGGGTGTCCCCACTTCA	6380
AAATTACTAAGTTGCCTGGTGGGTGACGCCGTATGA	4140
CGGGGTTAAGTTTGCTTAGTGGGTGGCTTGCAGCAG	4290
AAATTACTAAGTTGTCACCTGACTTACCCCGTATGA	3590
GCTAGTAGCTCTACCCACGGGACTACTCACAGTTCT	7300
CGTCCTAGTGATTCCCACGTGTTTTCCATGAGGAAG	17800
CGACCCAGTTGTACGAGGCAACAGGCCCGACTTCAC	4090
CTAACGAAGGTTTGGCAAGTGGGTGACAAGCCAAGT	3810
AATCTCCACTTTACCAATGTGACAGTCTAGACAAGC	4640
CGTCTCGAGCATGAGCGTGTGCAACAGTTGCAACAA	7590
CCAATGTACTTAAAGCACGATATCGACGCTCCTAAG	7790
GGTGTAACATTCAGATGCGTGCGATATTTATTCTCT	10200
GCTACGCATTCCCTTCGCGTGAGACCATCAAATCTC	4600
CGTCACTTGCCAGGTCACATGGGCAAATGGCCAGCG	10100
GTCTTGTCTCATTGTCACCATACTTTCCCCACTTCA	4770
GCTGTCTCCCTGCGACATGTGTACAGGTGCCATCAT	8870

Block 2
Target: Sal-like protein 4, full length isoform B (SALL4, Homo sapiens, UniProt Q9UJQ4-2, residues 1-616)
Technique: universal PBM
Form: double-stranded DNA, one strand shown
Matrix: in vitro
Concentration: not given
Notes: 8-mer, flanks averaged, mean of replicates
Reading: higher = stronger binding
Construct (chain): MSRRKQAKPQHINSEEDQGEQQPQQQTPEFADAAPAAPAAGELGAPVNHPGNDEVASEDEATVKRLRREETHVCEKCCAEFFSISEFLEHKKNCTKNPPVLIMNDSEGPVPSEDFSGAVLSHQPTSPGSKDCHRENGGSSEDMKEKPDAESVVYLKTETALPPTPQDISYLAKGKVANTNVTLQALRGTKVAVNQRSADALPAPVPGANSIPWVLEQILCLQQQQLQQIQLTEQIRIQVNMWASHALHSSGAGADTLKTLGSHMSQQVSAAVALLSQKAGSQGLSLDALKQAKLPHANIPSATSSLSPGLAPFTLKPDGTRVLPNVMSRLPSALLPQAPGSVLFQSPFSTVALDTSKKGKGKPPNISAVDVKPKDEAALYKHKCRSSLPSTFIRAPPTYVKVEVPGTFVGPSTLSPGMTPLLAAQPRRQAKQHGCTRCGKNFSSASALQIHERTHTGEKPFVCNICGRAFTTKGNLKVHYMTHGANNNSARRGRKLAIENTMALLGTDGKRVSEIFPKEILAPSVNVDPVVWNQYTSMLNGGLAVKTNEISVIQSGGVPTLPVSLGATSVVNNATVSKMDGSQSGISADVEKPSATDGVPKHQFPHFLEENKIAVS
Sequence	E-score
AAGACTGT	0.0275
AGCCAAAA	0.198
GTCTACGA	-0.12
ATGCCAGA	-0.0476
CCAACCGC	-0.265
TACCCCGA	-0.127
CCGTCTCC	-0.276
GCTTGCTA	-0.166
ACCTCACG	-0.116
CTCTTGCA	-0.198
CCGGGCGC	-0.374
GCTCGGTA	-0.0442
CGTTATGA	0.296
TAAGAGTA	0.325
CGAGTAGA	-0.138
CATTGATA	0.114
GGCGAATA	0.0261

Block 3
Target: RNA binding protein fox-1 homolog 2, RRM domain, GST-SBP tag (RBFOX2, Homo sapiens, UniProt O43251-10, residues 100-194)
Technique: RNA Bind-n-Seq
Form: RNA
Matrix: in vitro
Concentration: 365 nM
Notes: natural RNA segment, single round, ends assumed
Baseline: no-protein control
Reading: higher = stronger binding
Constant ends, left off below: GGGAGUUCUACAGUCCGACGAUC … UGGAAUUCUCGGGUGCCAA
Target sequence (chain): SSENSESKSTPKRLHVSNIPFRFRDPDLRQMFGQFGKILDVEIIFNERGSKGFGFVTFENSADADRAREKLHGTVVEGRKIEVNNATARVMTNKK
Sequence	RBNS enrichment (R)
GCGCUGAGGGUGGGUUGGGCAACAGCCUGAGAGUGGACUCAGUGUUGAUUCUCUAUCGUGAUGCGAAAUUGAUGCCUGCUGCUCUACAGAAAAUGCCAACUUGGUUUUUU	0.638
GCAUAUCUUUAAUCACACCUAUACCUACCAUACUGCACUGUAGCCUUUGCAUGUGAGUAUUAUGUACUACAGUAAGGAAUGGAUGGCUCCUAACUAGCAUGCAACCCUUG	33.7
GGGGAGUGGAGGGUGGCCGGGCAGGUCCUGCCGGCGCAGGGAGCCCUCUGCCCUUCACACUCUCCUCCAAAAGAGCCUCCAUCUGUAAGGAAGCAGGUCUCCGCGAGGGG	0.204
UGUUUUUGAAAUGUGUAUUUCUAAUUAUAUAAAAUAUUAAGAAUCUUUUAAAAAAAUCUGUGAAAUUAACAUGCUUGUGUAUAGCUUUCUAAUAUAUAUAAUAUUAUGGU	2.91
UUAGUAUGGCAAAUCAUAUUUUACUUUUACUUAAGCAUUUGUAAUUUGGAGUAUCUGGUACUAGCUAAGAAAUAAUUCUAUAAUUGAGUUUUGUACUCACCAUAUAUGGA	0.333
GGGCGCUGCCACCACAAGGCCAGCCACUGAGCAGGCAGCUCCCUUCGUCGUCCUCCUGCCCACCCGCUGACAUUAUUUUUAUAUAGCUAAAGAGGUCAACAGCACGGGCA	0.339
UCAGUAAACUAGAAGUCCAGGGUUGCUUGGUUUACUGGUUUAUAAGAAAUCUGAAAGCACCUCUGACAUUCCUUUUAUUAACUCACCUCUCAGUUGAAAGAUUUCUUCUU	0.354
CAACAGAAGGAAAAGGCUCUUUUCCUUGGAGAUUUUCAAGUUGAAAAAGUACAGCUGCUUGGAUGGAGUUUCUCUCAUCAGAAUAGAAAUAUGCUAGGUGGUCUUCAAGA	0.333

Block 4
Target: Histone acetyltransferase KAT6A, winged helix 2, GST fusion (KAT6A, Homo sapiens, UniProt Q92794, residues 85-181)
Technique: protein binding microarray
Form: double-stranded DNA, one strand shown
Matrix: in vitro
Concentration: not given
Notes: 8-mer, flanks averaged, mean of 2 arrays, mostly near background
Baseline: not given
Reading: higher = stronger binding
Construct (chain): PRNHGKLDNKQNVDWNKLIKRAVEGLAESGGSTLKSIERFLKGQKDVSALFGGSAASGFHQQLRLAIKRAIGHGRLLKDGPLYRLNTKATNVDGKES
Sequence	E-score
CAGAGGAC	-0.0236
AGAGTGAA	0.14
AGAAAGAA	0.0616
CAAGGCGC	0.0475
AGAACTCT	0.0268
AAGGATTG	-0.101
ACAAAGAT	-0.0192
AGGTTGTC	-0.141
TATGGCCA	-0.223
CGCGTTCA	0.184
GGGGACGA	0.133
GAGGGTGC	-0.0533
AATTCGCT	0.0665
ATTTACTG	-0.0563
TCGCCACA	-0.0609
AAGTCCCT	-0.184
GCCACATA	-0.00137
AGCTGGCG	-0.0395
GGCGTTTA	-0.186
ATCGCTGG	-0.019
AGGTAGAA	-0.129
ATCTACAA	-0.0903
AGCCGCGC	0.139
GTTTTCAA	0.0483
ACGTAAAT	-0.121

Block 5
Target: RING finger protein unkempt homolog, zinc fingers 1-6, GST-SBP tag (UNK, Homo sapiens, UniProt Q9C0B0, residues 30-357)
Chain of UniProt Q9C0B0 (30-357, looked up): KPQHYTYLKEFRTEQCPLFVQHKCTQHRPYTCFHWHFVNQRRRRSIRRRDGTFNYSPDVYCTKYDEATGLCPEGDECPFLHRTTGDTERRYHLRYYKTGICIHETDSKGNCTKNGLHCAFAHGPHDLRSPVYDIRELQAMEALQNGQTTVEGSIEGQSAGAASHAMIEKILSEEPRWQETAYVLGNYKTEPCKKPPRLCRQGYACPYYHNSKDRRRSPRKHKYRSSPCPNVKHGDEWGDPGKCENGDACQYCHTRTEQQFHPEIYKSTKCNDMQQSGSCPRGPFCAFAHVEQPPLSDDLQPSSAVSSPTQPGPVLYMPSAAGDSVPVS
Technique: RNA Bind-n-Seq
Form: RNA
Matrix: in vitro
Concentration: not given
Notes: RNA with constant flanks, human-mouse chimeric sites, ends assumed
Baseline: input RNA pool
Reading: higher = stronger binding
Constant ends, left off below: GGGAGUUCUACAGUCCGACGAUC … CAACAGAGGAUUGAGCAUCA
Sequence	bound/input enrichment [ratio]
CUGUGCGGGUGACUGUCCUGGAGUGGCUGGAGUUCCCCCGGAACCUGGGCCAGACUAAUUUUAGAAAAUGCCAAGUAGGAAGUUUGUUGAGGGUGAAGUGGUCAGAGGCCGAUGGCCUGG	1.75
CAGCCUCAGAGCCCUGACUUCCUGGAUAUUACCAACCCUAAAGCGGUAUUAGAAAAUGCAUUGAGAAACUUCGCCUGUCUGACGACUGGGGAUGUGAUUGCUAUCAACUACAAUGAGAAG	0.621
GUGACUGGUGUUAAGAUUUCCCCUCAGCAAAGAAGUGCAGUAGUCACAAUAAUCCCUUCUGUGGUGAGUGCCAGUCAGAUUGUGGAGCUGGUCCCAGACCUCAGUUUAGACAUGGGAACU	0.249
GUGACUGGUGUUAAGAUUUCCCCUCAGCAAAGAAGUGCAGUAGUCACAAUAAUCCCUUCUGUGGUGAAUGCCAAUCAGAUUGUGGAGCUGGUCCCAGACCUCAGUUUAGACAUGGGAACU	0.408
UGUAACUUAUCUGUAAAAAAGGUUUCUCCCCUACUGUAAAAAAAUAUGCAUGUAUAGUAAUUAGGACUUCAUUCCUCCAUGUUUUCUUCCCUUAUCUUACUGUCAUUGUCCUUAAACCUU	2.06
GACUUUGGAACUGGUCCUCGCAACGCAGCCUUCUAUAGCCCUCAUGGACAUAUAUUAGUAUUAGCUGGAUUUGGAAAUCUUCGAGGACAAAUGGAAGUAUGGGAUGUUAAAAACUACAAG	0.687
AAAGAUCUACUGAGGCAAGGCAGCAAAUUUAGGAGAGACAUUUCAACAAUAUUGAUAGAGUUAGGAUUCCAAAUUAAAAAGAAAACUAAAAGAUUGUACAUCAACAAAGCCAAUGUGUGG	2.55

Block 6
Target: Fragile X messenger ribonucleoprotein 1, C-terminal low-complexity region (Fmr1, Mus musculus, UniProt P35922)
Technique: RNA Bind-n-Seq
Form: RNA
Matrix: in vitro
Concentration: 200 nM
Notes: whole 134-nt RNA, ends assumed
Added: 150 mM LiCl
Baseline: input library
Reading: higher = stronger binding
All molecules: 7-deaza-guanosine replaces G
Constant ends, left off below: GGGAGUUCUACAGUCCGACGAUC … UGGAAUUCUCGGGUGUCAAGG
Sequence	log2 enrichment
CAAGUCCUGUGCUACACAUCGUAUGUACCGAAUCGGAAAGGAAAGGGGAAAGGGGAAAGUAUUAUGUUACGCCGUUCGGAUCUGCACUUC	-0.0333
GCAGGAAGUAAAAACAAAUGGAAAUGCUUCGGAUAGUGGCAGGGGCGGGGGUUGCUAAGGAAAGGGUGGGAUGGGAGUGGGUAAAGAGUU	1.43
GUCCUGUGCUACACAUCGUAUGUACCGAAUCGGGAAAAAGGGAAAAAAAGGGAAAGGGAAAGUAUUAUGUUACGCCGUUCGGAUCUGCAC	0.0445
GUCCUGUGCUACACAUCGUAUGUACCGAAUCAAAUUUUUAAACCCCCCCAAAUUUAAAAAAGUAUUAUGUUACGCCGUUCGGAUCUGCAC	0.53
UCCUGUGCUACACAUCGUAUGUACCGAAUCGGGGUUUUUGGGUUUUUGGGUUUUUGGGGAAAGUAUUAUGUUACGCCGUUCGGAUCUGCA	-1.14
UGGGAGGUGGAUUUUGUUUAUUUUUUUAGCUCAUUUCCAGGGGUGGGAAUUUUUUUUUAAUAUGUGUCAUGAAUAAAGUUGUUUUUAAAA	0.662
CAAGUCCUGUGCUACACAUCGUAUGUACCGAAUCGGGGCCCGGGGCCCGGGCCCGGAAAGUAUUAUGUUACGCCGUUCGGAUCUGCACUU	-1.9
